Published values pooled from the literature.
Parts stem from different laboratories: compare values within a part only.

Block 1
Target: RNA binding protein fox-1 homolog 2, RRM domain, GST-SBP tag (RBFOX2, Homo sapiens, UniProt O43251-10, residues 100-194)
Technique: RNA Bind-n-Seq
Form: RNA
Matrix: in vitro
Concentration: 365 nM
Notes: natural RNA segment, single round, ends assumed
Relative to: no-protein control
Direction: higher = stronger binding
Quantity: RBNS enrichment (R)
All sequences stand within: GGGAGUUCUACAGUCCGACGAUC … UGGAAUUCUCGGGUGCCAA
Target sequence (chain): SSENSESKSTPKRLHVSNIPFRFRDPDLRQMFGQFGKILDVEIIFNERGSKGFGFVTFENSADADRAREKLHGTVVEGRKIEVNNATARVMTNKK
UUCUGGUAGCAAAUUAACUUUACAUCCUUUUUCCUACUUGUUAUGGUUGUUUGGACCGAUAAGUGUGCUUAAUCCUGAGGCAAAGUAGUGAAUAUGUUUUAUAUGUUAUG: 0.427
CAGCACUUGGAAUUGUGUGUUCUUGUACAUUUUGUAUUUUAAAACCUUUUAUGGGAGUGCAGUGCUCCUUACACAAAUACAAAGGGAAGAAGAGCCAGCAGUUGAGGCUC: 0.696
AUGAUGGCAUGAAGUAAAAGGGGCCUCAAUGAUGAUAGGAAAAUCAGUUCUUUUAAAAUUUCUUCAAGAAAAUCCAGGCUAUCACAUAGUCUUUCUGUGUGACUUAUUAG: 0.896
AUCUGGGCUGAGCCAAAGUCCCUUUUGGAAAUACAAGCCAUAACAUUCGAAGGACAUCAGCGACCUUGGCUUGUUUAGGUGAUUUUACUUCCAGCUGCAGGUAGUCUUGA: 0.337
UAGGCAUACAAGUGGCUCCUGUUCCACAAUACUAACUACUAUAUUUCUACAUUGUGACUUGUUUUACUUUAAAAGGGGAUAAACAAAUUUAUAGCAACUAUAAAGUAUCA: 0.608
UAGAUAAGUGGGACGGUAAAGACAAAGGCGUGGAAGAGAAAGUCAGCGCUUCCUUCCUGGGAAGCCUGUCGUCUGGGUUAAUCUGUUGAUGUAUCUUCAUUGUCAUCUCU: 0.268
GAUGUUCAUCACAGUGUGGUAAGGUUGCAAAUUCAAAACAUGUCACCCAAGCUCUGUUCAUGUUUUUGUGAAUUCUAGGCUGGUGCUGCACUGAAAUAGAGCAGUAAGCU: 0.444
UUUUUUUUAAGAAAAGAAAUAAAGAUUCAUCCCCUGGCCUCUACUUCAGAUUCGAAGUGGGAGGCAACUCAAUGUGCCUGGGGCUCGCCAUGGGCCCACAGAGUCUCGCU: 0.198

Block 2
Target: RING finger protein unkempt homolog, zinc fingers 1-6, GST-SBP tag (UNK, Homo sapiens, UniProt Q9C0B0, residues 30-357)
Chain of UniProt Q9C0B0 (30-357, looked up): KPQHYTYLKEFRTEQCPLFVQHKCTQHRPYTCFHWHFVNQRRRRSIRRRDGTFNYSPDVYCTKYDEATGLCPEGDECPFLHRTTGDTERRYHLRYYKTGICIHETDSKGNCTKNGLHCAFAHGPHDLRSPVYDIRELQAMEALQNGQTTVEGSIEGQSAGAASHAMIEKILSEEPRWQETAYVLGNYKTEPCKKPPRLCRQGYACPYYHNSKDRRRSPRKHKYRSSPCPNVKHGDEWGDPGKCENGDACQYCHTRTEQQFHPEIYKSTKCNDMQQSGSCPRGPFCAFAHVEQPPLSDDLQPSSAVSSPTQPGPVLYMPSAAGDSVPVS
Technique: RNA Bind-n-Seq
Form: RNA
Matrix: in vitro
Concentration: not given
Notes: RNA with constant flanks, human and mouse sites, ends assumed
Relative to: input RNA pool
Direction: higher = stronger binding
Quantity: bound/input enrichment
All sequences stand within: GGGAGUUCUACAGUCCGACGAUC … CAACAGAGGAUUGAGCAUCA
CCCUCAAAUCUUAGAGCGACGUGUUUGCCAGCUGGAGACCACAAUGUGUUCUAUGUAAAUACGUUCCCACUUCAAGACCCGCCUGACGCACCUUUUCCCUCACUGGAUUCCCCAGGAAAG: 0.28 ratio
CCUUGGCACUGGCCUCCAGCAAGCCCUGUUCUCUUUGGGGUACAGGGGAACGGGAUGGUUUAGACUUUCCUGCUCAGUGUGUAAAAAAUGUAGCUAAAGCCACUAUUUUUGCUCUCCUUA: 0.208 ratio
AACUUCUUUGUCCGUUCUACUGAUUUGUUAUCCCUUGCCAACAUCAAUCCUGAUGCUGGAUUUGCGGUGCAGUUGUCAAUUGAAGAAAGUUUAACAGAUACUUCCUUAGUAUGUUUUCAA: 1.26 ratio
CGCAGAACGGAUGAAGCUCUUACACCAAGUGUCACGAGUCUGGAGAACAGAUGGGUUGAGUAGUUGUUCUUAUAAAUUAGUAUCUGUGGAACACAAUCCUUUAUAUAUCAACAUCACAGU: 5.25 ratio
CUCAUUCUUUCCUUGGCGUGUCUGAGUGUCCUCUGUCCUCUGGUUAUCCGUGCCUUGGUCCUUAGGGAAGAGAGCUGUGGUAGGGUAUGAAGAUGGUACCAUCAGGAUCUGGGACCUCAA: 0.214 ratio
CCUGGUGCAGGAUUGCUUCCAAUACCGACCCCAAAUCCUUUGACUACUCUUGGUGUUUCACUUAGCAGUUUGGGAGCUAUACCAGCAGCAGCACUAGACCCCAACAUUGCAACACUUGGA: 0.184 ratio
CGAGCAGUGGAGUGUUGUGUGAGGUUGCUUCAUGUGCGAAAUGGAAAUUGUAAAUAUCAUCUAGGUGAAGAAACAUUUAAAUUAGCUCAGACAUACAUGGAUAAGCUGUCUAAACAUGGC: 0.485 ratio
GUCAGAUUUGAGAAUGCAGAUCUGAACGACACAUCACGGAAUCUAGAAUUUCAUGAACUGCAUAGCACUGGAAAUGAGCCUCCUCUGCUGGUUAUGAUCGGCUACAGUGACGGAAUGCAG: 0.215 ratio

Block 3
Target: Interferon regulatory factor 7, full length, phosphomimetic (IRF7, Homo sapiens, UniProt Q92985, residues 1-503, S471D/S472D/S475D/S476D/S477D/S483D/S484D/S487D)
Technique: protein-binding microarray
Form: double-stranded DNA, one strand shown
Matrix: in vitro
Concentration: 2200 nM top
Notes: 60-bp whole probe
With: salmon DNA 0.4 mg/ml
Relative to: random background probes
Direction: higher = stronger binding
Quantity: fitted relative affinity
All sequences stand within: GCCTAGCAC … GTCTTGATTCGCTTGACGCTGCTG
Target sequence (chain): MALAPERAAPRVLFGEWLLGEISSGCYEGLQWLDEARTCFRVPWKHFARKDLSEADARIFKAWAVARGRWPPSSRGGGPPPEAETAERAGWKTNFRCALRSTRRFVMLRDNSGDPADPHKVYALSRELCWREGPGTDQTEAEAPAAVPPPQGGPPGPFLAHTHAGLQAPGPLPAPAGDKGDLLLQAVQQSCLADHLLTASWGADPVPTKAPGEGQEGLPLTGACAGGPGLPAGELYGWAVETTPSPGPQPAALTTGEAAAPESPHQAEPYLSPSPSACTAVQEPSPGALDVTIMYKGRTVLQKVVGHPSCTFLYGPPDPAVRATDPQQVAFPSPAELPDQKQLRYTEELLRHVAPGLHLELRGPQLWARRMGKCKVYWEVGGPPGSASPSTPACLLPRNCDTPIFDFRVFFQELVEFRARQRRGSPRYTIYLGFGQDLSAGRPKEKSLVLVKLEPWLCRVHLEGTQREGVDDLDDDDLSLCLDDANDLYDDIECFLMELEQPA
TCGGGTCTCCCTTGAGGTTTGTGCTAG: 1.47 z-score
TCAATTTTCATTTTCCAACTGTGCTAG: 6.02 z-score
ATAGATTTCAGTCTCGATTAGTGCTAG: 1.09 z-score
CCCTGAGTCCCTTGGGCCTTGTGCTAG: -0.844 z-score
GACGATCTCAGTCTCGAGACGTGCTAG: 0.388 z-score
GACGGTTTCCTTTTCCTGCCGTGCTAG: 5.24 z-score
CAACCTATAGGTTCAACGACGTGCTAG: 0.163 z-score
TTAGGTTACGACTATCGGTTAGTGCTA: 0.418 z-score
TCATACATGTGTTTAAAACTGTGCTAG: 0.499 z-score
GACGGTTTCGACTTTCGCGACGTGCTA: 7.35 z-score
GACGATAGCGGGACTGGAGACGTGCTA: -0.62 z-score
TGTTACATTTATATCTTTGCGTGCTAG: 1.15 z-score
GACGAACTGGGGTATCAAGACGTGCTA: -0.166 z-score
GCTAGTTCAGTTCTCTAGAAGTGCTAG: 0.448 z-score
TCATTTTTCTGCTTAGAACTGTGCTAG: 2.84 z-score
GACGGTTTCGGTACCGGGACGTGCTAG: 4.99 z-score
TTAGATATCGGGTATCGCTTAGTGCTA: 0.435 z-score
TTAGGTCTCCTACTGCTTTAGTGCTAG: 0.502 z-score
TCATCTGTCAGTTTTGAACTGTGCTAG: 1.14 z-score

Block 4
Target: Sal-like protein 4, full length isoform A (SALL4, Homo sapiens, UniProt Q9UJQ4, residues 1-1053)
Chain of UniProt Q9UJQ4 (whole entry, looked up): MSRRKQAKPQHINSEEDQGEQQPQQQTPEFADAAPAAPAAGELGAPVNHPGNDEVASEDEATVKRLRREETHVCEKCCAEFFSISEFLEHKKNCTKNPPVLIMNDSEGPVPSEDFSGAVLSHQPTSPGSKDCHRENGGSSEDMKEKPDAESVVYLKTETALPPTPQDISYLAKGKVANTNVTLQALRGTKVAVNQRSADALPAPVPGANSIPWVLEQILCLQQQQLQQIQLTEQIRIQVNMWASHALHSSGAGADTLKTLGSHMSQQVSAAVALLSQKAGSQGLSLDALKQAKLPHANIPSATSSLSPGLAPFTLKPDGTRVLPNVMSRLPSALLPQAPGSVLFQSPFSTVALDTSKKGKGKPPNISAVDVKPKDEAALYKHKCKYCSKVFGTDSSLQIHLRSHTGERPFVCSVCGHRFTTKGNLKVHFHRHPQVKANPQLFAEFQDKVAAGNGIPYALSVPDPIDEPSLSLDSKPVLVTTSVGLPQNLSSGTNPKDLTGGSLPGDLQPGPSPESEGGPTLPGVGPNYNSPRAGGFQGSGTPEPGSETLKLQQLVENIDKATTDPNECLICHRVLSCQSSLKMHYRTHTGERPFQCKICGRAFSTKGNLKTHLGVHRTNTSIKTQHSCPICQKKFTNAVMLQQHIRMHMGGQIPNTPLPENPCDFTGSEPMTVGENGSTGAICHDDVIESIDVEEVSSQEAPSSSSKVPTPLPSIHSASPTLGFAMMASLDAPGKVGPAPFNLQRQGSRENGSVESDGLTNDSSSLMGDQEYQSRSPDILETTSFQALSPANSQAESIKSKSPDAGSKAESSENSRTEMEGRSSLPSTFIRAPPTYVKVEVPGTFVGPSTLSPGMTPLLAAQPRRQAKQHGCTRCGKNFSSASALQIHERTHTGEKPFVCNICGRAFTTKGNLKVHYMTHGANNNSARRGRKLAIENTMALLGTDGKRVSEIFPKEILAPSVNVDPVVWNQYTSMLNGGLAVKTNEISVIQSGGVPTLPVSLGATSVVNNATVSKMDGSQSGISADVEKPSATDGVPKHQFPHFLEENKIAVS
Technique: universal PBM
Form: double-stranded DNA, one strand shown
Matrix: in vitro
Concentration: 600 nM
Notes: 8-mer, flanks averaged, mean of replicates
Direction: higher = stronger binding
Quantity: E-score
CACCACTG: -0.108
AGTGCCGG: -0.364
CGCCCCAA: -0.203
TGCTGCCA: -0.107
CCAGTCGA: -0.254
ACCAGTTA: 0.13
ACTTGAGA: 0.144
AGACAACC: -0.07
ACACGAAT: 0.152
ATTGTTGA: 0.228
CGCGGCAA: -0.2
ACGGAACT: -0.0535
CTCTGTCC: -0.177
CCACTGGA: -0.285
GAACAAGA: 0.049
ACCTAAAT: 0.155
TATCACAA: 0.251
CCAGGACA: -0.134
AGGTGCCC: -0.324
ACTCAAGA: -0.0575
TATCCGCA: 0.155
CTGACATA: 0.21
ACAAGGTC: -0.0441
AAGAATGG: -0.00588
ATCTGGGC: -0.192
